Results collected from several papers.
Every numbered part comes from another study and shows a few of its results, in no order. Substitutions count along the parent as printed.

Study 1 — method: universal PBM; molecule type: double-stranded DNA, one strand shown; matrix: in vitro; concentration: not given; direction: higher = stronger binding
Target: Sal-like protein 4, full length isoform B (SALL4, Homo sapiens, UniProt Q9UJQ4-2, residues 1-616)
Setting: 8-mer, flanks averaged, mean of replicates
| Strand | E-score |
| --- | --- |
| GAGCATCC | -0.259 |
| AATTTAAT | 0.38 |
| GACGATTA | 0.122 |
| AAGTGTGT | 0.152 |
| CCAACTGC | -0.245 |

Study 2 — target: CCND3, cyclin fold, Cln2 fusion (human); method: yeast growth competition, sequencing; matrix: yeast; setting: weak parent motif; reference: not given; direction: higher = stronger binding
Starting sequence: BRCA2 docking peptide (human); PSIKRNLLNEFDR; partner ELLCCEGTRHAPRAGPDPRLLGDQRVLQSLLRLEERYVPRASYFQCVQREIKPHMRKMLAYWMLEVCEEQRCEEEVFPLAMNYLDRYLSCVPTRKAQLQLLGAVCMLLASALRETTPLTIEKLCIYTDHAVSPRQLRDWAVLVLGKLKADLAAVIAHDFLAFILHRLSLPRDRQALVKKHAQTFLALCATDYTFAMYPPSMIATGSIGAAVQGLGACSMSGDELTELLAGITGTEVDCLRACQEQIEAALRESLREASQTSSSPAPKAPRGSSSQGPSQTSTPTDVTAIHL
| Variant | normalised enrichment score |
| --- | --- |
| L8S | 0.155 |
| E10T | -0.0562 |
| N6W | 0.0862 |
| N6K | 0.166 |
| S2W | 0.049 |
| D12Y | 0.171 |
| S2D | 0.106 |
| S2G | 0.0219 |
| L8Y | 0.109 |

Study 3 — method: RNA Bind-n-Seq; molecule type: RNA; matrix: in vitro; concentration: 365 nM; reference: no-protein control; direction: higher = stronger binding
Target: RNA binding protein fox-1 homolog 2, RRM domain, GST-SBP tag (RBFOX2, Homo sapiens, UniProt O43251-10, residues 100-194)
Setting: natural RNA segment, single round, ends assumed
Shared flanks, not repeated: GGGAGUUCUACAGUCCGACGAUC … UGGAAUUCUCGGGUGCCAA
Target sequence (chain): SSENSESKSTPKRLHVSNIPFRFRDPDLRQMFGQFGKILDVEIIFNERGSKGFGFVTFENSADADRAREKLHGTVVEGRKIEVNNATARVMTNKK
| Strand | RBNS enrichment (R) |
| --- | --- |
| AGUUUAAAAAUCAAAAUGUUAACACAAAGCUAAGAUUCAUCAGAGCCCACCCUAUUCUAAGGAACCACAAUAACUUACUCUGGCCCCAGUGUUAAAACGAUCUUUCAGAU | 0.359 |
| UUUCACCAUGGCAAACCUAAAUGCAGUCAGUCACAAACCAGCCUGGGGCCUUCCUGGCUUUGGGAGUAAGAAAUGGGCCUCAGCCCCGCGGAUCAACCAGGCAGAGUUCU | 0.358 |
| CGGCUCGGCCGCCACCCAGGACGCUUCCAGACCACCUGCCAGCCAUCUCGUGGAGAACAUAGAUGGCAGAAAUCUUGCAGCUUUUUUAUUUAAAAGAAAAGAAAAAAAAG | 0.332 |
| UGUUUGAUUCAACACUGCACUAAGGGGGAAAUGUUCCAUUGAAUAAAAGAGCAGUGUGGUUUUCCGGGUCCGUUUCUUUUCUUUUAAAACCUUUUUCCUGACCAUCAGCA | 0.965 |
| CACUCUUAUUCCCAAACUACAGAAUAAUGUGUUAAACAUGCUAAAUAGUUCUAUCAGGAAAACAAAUCACUGUAUUUAUCUCCGCAGGCUAUUUGUUCAGAGAGGCCUUU | 0.32 |
| GAUGAUUACUACAGCAAAAGCAGCUAACGUUUUACUUUGUAUCUUGUGUCCUCAGAAUUAAGAACUGGUGUUUGUAAUAAAUCAAAGCAUGCUUAUGUCAGAAUGUGUGG | 16.8 |
| AUCUAUAUUUUUUUAGGAAAACAGAAAUUGAAAAAUUUAUCCCAUUGGGGCAUUUAAAGCUACUCUUCUUUCUUCUUCCUCUCUUGACCACAUCCUAGACCCAGUUCCAU | 0.787 |
| GUCUUGUGCCUAGACCUCACUCCCAGCCCACCAGGGAGCCAAUUUCAGCAUACCAUGCCAAGGCACACCGACCUACCAGCCAAUAACUGUUCUGCCUCUGCCUUGAUACU | 0.39 |

Single results of other studies
| Substance | target | test | test system | setting | how to read | endpoint | value |
| --- | --- | --- | --- | --- | --- | --- | --- |
| PhoQ, residues 284 288 289 292 302 303 TGYLSA | PhoP, residues 12 14 15 18 19 TTLRV (Escherichia coli, UniProt P23836) | Sort-seq, refers to: YFP reporter | E. coli | PhoQ-PhoP variant library, added: 10 µM Mg2+ | reference: high Mg2+ state, higher = stronger signaling | fold induction | 13.5 |

Excerpt of the above (study 3):
| Strand | RBNS enrichment (R) |
| --- | --- |
| GAUGAUUACUACAGCAAAAGCAGCUAACGUUUUACUUUGUAUCUUGUGUCCUCAGAAUUAAGAACUGGUGUUUGUAAUAAAUCAAAGCAUGCUUAUGUCAGAAUGUGUGG | 16.8 |
| AUCUAUAUUUUUUUAGGAAAACAGAAAUUGAAAAAUUUAUCCCAUUGGGGCAUUUAAAGCUACUCUUCUUUCUUCUUCCUCUCUUGACCACAUCCUAGACCCAGUUCCAU | 0.787 |
